Results of several laboratories.
Protocols differ between the studies behind these lines. ± marks the error that the study gave.

C[C@H](NCc1ccc(-c2ccc(C(F)(F)F)cc2)cc1)C(N)=O — step-through latency (passive avoidance, acquisition; APP/PS1 mice; oral, 10 mg/kg, 336 h, 2 weeks dosing): 33.2 ± 6.94 s
CCCC[C@@H]1NC(=O)[C@H](Cc2ccc(O)cc2)NC(=O)[C@@H]2CCCN2C(=O)[C@H](CC(=O)O)NC(=O)[C@H](C)NC(=O)[C@H](Cc2ccccc2)NC(=O)[C@@H]2CSCCC(=O)N3CN(CN(C3)C(=O)CCSC[C@@H](C(=O)N[C@@H](C)C(N)=O)NC1=O)C(=O)CCSC[C@H](NC(C)=O)C(=O)N[C@@H](CC(C)(C)C)C(=O)N1CCC[C@H]1C(=O)N[C@@H](CCC(=O)O)C(=O)N[C@H](CCCCNC(=O)CCc1cn(CCOCCOCCOCCN(CCOCCOCCOCCC(=O)N[C@H]3CSCCC(=O)N4CN5CN(C4)C(=O)CCSC[C@H](NC(=O)[C@@H](CC(=O)O)NC(=O)[C@H](Cc4cccc6ccccc46)NC(=O)[C@@H]4CCCN4C3=O)C(=O)N[C@@H](CCSC)C(=O)N[C@@H](CCCCNC(=N)N)C(=O)N[C@@H](CC(=O)O)C(=O)N[C@@H](Cc3c[nH]c4ccccc34)C(=O)N[C@@H](CO)C(=O)N[C@@H]([C@@H](C)O)C(=O)N3CCC[C@H]3C(=O)N3C[C@H](O)C[C@H]3C(=O)N[C@@H](Cc3c[nH]c4ccccc34)C(=O)N[C@H](C(N)=O)CSCCC5=O)CCOCCOCCOCCn3cc(CCC(=O)NCCCC[C@H]4NC(=O)[C@H](CCC(=O)O)NC(=O)[C@@H]5CCCN5C(=O)[C@H](CC(C)(C)C)NC(=O)[C@@H](NC(C)=O)CSCCC(=O)N5CN6CN(C5)C(=O)CCSC[C@H](NC(=O)[C@H](Cc5ccc(O)cc5)NC(=O)[C@@H]5CCCN5C4=O)C(=O)N[C@@H](Cc4ccccc4)C(=O)N[C@@H](C)C(=O)N[C@@H](CC(=O)O)C(=O)N4CCC[C@H]4C(=O)N[C@@H](Cc4ccc(O)cc4)C(=O)N[C@@H](CCCC)C(=O)N[C@H](C(=O)N[C@@H](C)C(N)=O)CSCCC6=O)nn3)nn1)C(=O)N1CCC[C@H]1C(=O)N[C@@H](Cc1ccc(O)cc1)C(=O)N2 — mRNA level (NanoString, measured: Runx1-mRNA; mouse bearing MC38-Nectin-4 tumour, circulating white blood cells; 5 mg/kg, 24 h after dosing, unit not given; baseline: vehicle): 1.36
COc1ccccc1-c1n[nH]c2nc(NC3CCN(C(=O)Cc4ccc(F)cc4F)CC3)ncc12 — relative abundance (bead binding, competition bead pull-down, measured: LINJ.03.0360; Leishmania donovani axenic amastigote extract; 10 µM; baseline: vehicle): 0.81
CC(C)C[C@@H]1NC(=O)[C@@H](Cc2c[nH]c3ccccc23)NC(=O)[C@H](CCCNC(=N)N)NC(=O)[C@@H](CCC(=O)O)NC(=O)[C@H](CCC(N)=O)NC(=O)[C@@H](CCC(=O)O)NC(=O)[C@H](CCCNC(=N)N)NC(=O)[C@@H](Cc2c[nH]c3ccccc23)NC1=O — cytokine level (Luminex, measured: KC; LDLr-/- mice, Western diet, liver; dose not given, 4 weeks): 190 ± 20 pg/g tissue
NNC(=O)c1ccccc1 — normalised absorbance (hydrazine ligation kinetics, absorbance; concentration not given, 30 s, added: 2-formylphenylboronic acid): 0.701
COc1ccccc1-c1n[nH]c2nc(N[C@H]3CC[C@H](NS(=O)(=O)CC(C)C)CC3)ncc12 — relative abundance (bead binding, competition bead pull-down, measured: LINJ.34.4360; Leishmania donovani extract; 10 µM; baseline: vehicle): 0.82
CCN(Cc1ccccc1)C(=O)CCc1nc(CN2CCN(C(=O)Cc3ccc(OC)c(OC)c3)CC2)no1 — rheobase (current clamp; DRG neurons, naive rat; 1 µM): 486 ± 80.3 pA
CO[C@H]1CC=C2CCN3CCC4=C(CC(=O)CC4)[C@]23C1 — ethanol preference (intermittent two-bottle choice; Wistar rat, 20% ethanol drinking; subcutaneous, 10 mg/kg, 24 h; baseline: ethanol over total fluid intake): 46 ± 4%
